Experimental data gathered from unrelated publications.
Compare with care: the assays were run in different laboratories. ± gives the spread as reported.
U2AF2: U2AF2 148-342 (Homo sapiens, UniProt P26368)
Chain of UniProt P26368 (whole entry, looked up): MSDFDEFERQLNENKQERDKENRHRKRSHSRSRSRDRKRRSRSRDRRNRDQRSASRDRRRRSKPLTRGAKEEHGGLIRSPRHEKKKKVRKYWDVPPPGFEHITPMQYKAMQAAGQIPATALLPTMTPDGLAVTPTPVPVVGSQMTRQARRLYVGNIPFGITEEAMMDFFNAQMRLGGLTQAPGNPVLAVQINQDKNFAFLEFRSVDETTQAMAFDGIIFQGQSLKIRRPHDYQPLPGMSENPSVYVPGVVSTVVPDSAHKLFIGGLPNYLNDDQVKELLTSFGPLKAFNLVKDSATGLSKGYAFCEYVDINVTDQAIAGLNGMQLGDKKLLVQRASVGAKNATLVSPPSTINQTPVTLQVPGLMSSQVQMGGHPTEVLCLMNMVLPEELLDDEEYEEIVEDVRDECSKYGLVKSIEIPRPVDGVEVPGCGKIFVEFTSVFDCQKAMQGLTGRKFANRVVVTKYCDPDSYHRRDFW
T1: PSMG3/PSMG4 heterodimer (Homo sapiens); chain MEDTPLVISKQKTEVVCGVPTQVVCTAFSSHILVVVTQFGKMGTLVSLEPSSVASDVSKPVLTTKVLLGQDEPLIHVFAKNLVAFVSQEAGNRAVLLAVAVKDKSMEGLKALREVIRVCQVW; chain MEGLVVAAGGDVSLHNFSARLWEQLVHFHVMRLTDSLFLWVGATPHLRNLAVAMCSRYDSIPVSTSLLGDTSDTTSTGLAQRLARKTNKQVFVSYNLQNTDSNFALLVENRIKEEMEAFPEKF
B1: RAD1 (Homo sapiens, UniProt O60671); sequence looked up; chain MPLLTQQIQDEDDQYSLVASLDNVRNLSTILKAIHFREHATCFATKNGIKVTVENAKCVQANAFIQAGIFQEFKVQEESVTFRINLTVLLDCLSIFGSSPMPGTLTALRMCYQGYGYPLMLFLEEGGVVTVCKINTQEPEETLDFDFCSTNVINKIILQSEGLREAFSELDMTSEVLQITMSPDKPYFRLSTFGNAGSSHLDYPKDSDLMEAFHCNQTQVNRYKISLLKPSTKALVLSCKVSIRTDNRGFLSLQYMIRNEDGQICFVEYYCCPDEEVPESES
B2: VIP1 (Arabidopsis thaliana, UniProt Q9MA75); phosphorylated by CPK21; sequence looked up; chain MEGGGRGPNQTILSEIEHMPEAPRQRISHHRRARSETFFSGESIDDLLLFDPSDIDFSSLDFLNAPPPPQQSQQQPQASPMSVDSEETSSNGVVPPNSLPPKPEARFGRHVRSFSVDSDFFDDLGVTEEKFIATSSGEKKKGNHHHSRSNSMDGEMSSASFNIESILASVSGKDSGKKNMGMGGDRLAELALLDPKRAKRILANRQSAARSKERKIRYTGELERKVQTLQNEATTLSAQVTMLQRGTSELNTENKHLKMRLQALEQQAELRDALNEALRDELNRLKVVAGEIPQGNGNSYNRAQFSSQQSAMNQFGNKTNQQMSTNGQPSLPSYMDFTKRG
B3: MED15 residues 7-659 (Saccharomyces cerevisiae); chain GSQDKDTLSNAERAKNVNGLLQVLMDINTLNGGSSDTADKIRIHAKNFEAALFAKSSSKKEYMDSMNEKVAVMRNTYNTRKNAVTAAAANNNIKPVEQHHINNLKNSGNSANNMNVNMNLNPQMFLNQQAQARQQVAQQLRNQQQQQQQQQQQQRRQLTPQQQQLVNQMKVAPIPKQLLQRIPNIPPNINTWQQVTALAQQKLLTPQDMEAAKEVYKIHQQLLFKARLQQQQAQAQAQANNNNNGLPQNGNINNNINIPQQQQMQPPNSSANNNPLQQQSSQNTVPNVLNQINQIFSPEEQRSLLQEAIETCKNFEKTQLGSTMTEPVKQSFIRKYINQKALRKIQALRDVKNNNNANNNGSNLQRAQNVPMNIIQQQQQQNTNNNDTIATSATPNAAAFSQQQNASSKLYQMQQQQQAQAQAQAQAQAQAQAQAQAQAAQAAQAQAQAQAQAQAQAQAQAQAQAQAQAQAQAQAQAHAQHQPSQQPQQAQQQPNPLHGLTPTAKDVEVIKQLSLDASKTNLRLTDVTNSLSNEEKEKIKMKLKQGQKLFVQVSNFAPQVYIITKNENFLKEVFQLRIFVKEILEKCAEGIFVVKLDTVDRLIIKYQKYWESMRIQILRRQAILRQQQQMANNNGNPGTTSTGNNNNIATQQNMQ
B4: MARCHF2 (Homo sapiens, UniProt Q9P0N8); sequence looked up; chain MTTGDCCHLPGSLCDCSGSPAFSKVVEATGLGPPQYVAQVTSRDGRLLSTVIRALDTPSDGPFCRICHEGANGECLLSPCGCTGTLGAVHKSCLEKWLSSSNTSYCELCHTEFAVEKRPRPLTEWLKDPGPRTEKRTLCCDMVCFLFITPLAAISGWLCLRGAQDHLRLHSQLEAVGLIALTIALFTIYVLWTLVSFRYHCQLYSEWRKTNQKVRLKIREADSPEGPQHSPLAAGLLKKVAEETPV
B5: human IGHG2; sequence looked up; chain ASTKGPSVFPLAPCSRSTSESTAALGCLVKDYFPEPVTVSWNSGALTSGVHTFPAVLQSSGLYSLSSVVTVPSSNFGTQTYTCNVDHKPSNTKVDKTVERKCCVECPPCPAPPVAGPSVFLFPPKPKDTLMISRTPEVTCVVVDVSHEDPEVQFNWYVDGVEVHNAKTKPREEQFNSTFRVVSVLTVVHQDWLNGKEYKCKVSNKGLPAPIEKTISKTKGQPREPQVYTLPPSREEMTKNQVSLTCLVKGFYPSDISVEWESNGQPENNYKTTPPMLDSDGSFFLYSKLTVDKSRWQQGNVFSCSVMHEALHNHYTQKSLSLSPELQLEESCAEAQDGELDGLWTTITIFITLFLLSVCYSATITFFKVKWIFSSVVDLKQTIVPDYRNMIRQGA
B6: POL30 1-258 (Saccharomyces cerevisiae, UniProt P15873); chain MLEAKFEEASLFKRIIDGFKDCVQLVNFQCKEDGIIAQAVDDSRVLLVSLEIGVEAFQEYRCDHPVTLGMDLTSLSKILRCGNNTDTLTLIADNTPDSIILLFEDTKKDRIAEYSLKLMDIDADFLKIEELQYDSTLSLPSSEFSKIVRDLSQLSDSINIMITKETIKFVADGDIGSGSVIIKPFVDMEHPETSIKLEMDQPVDLTFGAKYLLDIIKGSSLSDRVGIRLSSEAPALFQFDLKSGFLQFFLAPKFNDEE
B7: Ncoa1 260-369 (Mus musculus, UniProt P70365); sequence looked up; chain ESFMTKQDTTGKIISIDTSSLRAAGRTGWEDLVRKCIYAFFQPQGREPSYARQLFQEVMTRGTASSPSYRFILNDGTMLSAHTKCKLCYPQSPDMQPFIMGIHIIDREHS
B8: AEBP2 407-478 (Homo sapiens, UniProt Q6ZN18); sequence looked up; chain RHRAICFNLSAHIESLGKGHSVVFHSTVIAKRKEDSGKIKLLLHWMPEDILPDVWVNESERHQLKTKVVHLS
B9: ptsO 1-85 (Escherichia coli, UniProt P0A9N0); sequence looked up; chain MTVKQTVEITNKLGMHARPAMKLFELMQGFDAEVLLRNDEGTEAEANSVIALLMLDSAKGRQIEVEATGPQEEEALAAVIALFNS
B10: CLNS1A 2-237 (Homo sapiens, UniProt P54105); sequence looked up; chain SFLKSFPPPGPAEGLLRQQPDTEAVLNGKGLGTGTLYIAESRLSWLDGSGLGFSLEYPTISLHALSRDRSDCLGEHLYVMVNAKFEEESKEPVADEEEEDSDDDVEPITEFRFVPSDKSALEAMFTAMCECQALHPDPEDEDSDDYDGEEYDVEAHEQGQGDIPTFYTYEEGLSHLTAEGQATLERLEGMLSQSVSSQYNMAGVRTEDSIRDYEDGMEVDTTPTVAGQFEDADVDH
B11: PSMA5 (Homo sapiens, UniProt P28066); chain MFLTRSEYDRGVNTFSPEGRLFQVEYAIEAIKLGSTAIGIQTSEGVCLAVEKRITSPLMEPSSIEKIVEIDAHIGCAMSGLIADAKTLIDKARVETQNHWFTYNETMTVESVTQAVSNLALQFGEEDADPGAMSRPFGVALLFGGVDEKGPQLFHMDPSGTFVQCDARAIGSASEGAQSSLQEVYHKSMTLKEAIKSSLIILKQVMEEKLNATNIELATVQPGQNFHMFTKEELEEVIKDI
B12: PZF1 1-429 (Saccharomyces cerevisiae, UniProt P39933); chain MGGEVLNNEGMPLAELKQETIPISRSESSESLNSLTSTRSSSSNRPKTYFCDYDGCDKAFTRPSILTEHQLSVHQGLRAFQCDKCAKSFVKKSHLERHLYTHSDTKPFQCSYCGKGVTTRQQLKRHEVTHTKSFICPEEGCNLRFYKHPQLRAHILSVHLHKLTCPHCNKSFQRPYRLRNHISKHHDPEVENPYQCTFAGCCKEFRIWSQLQSHIKNDHPKLKCPICSKPCVGENGLQMHMIIHDDSLVTKNWKCHICPDMSFSRKHDLLTHYGSIHTEEDIPLELKYKISDIQQLVQDHGVQLGNSKHSNEQDEEKISNRLRKRRKLTENNNVEFLQNEVDLEKRLESGENGLNLLLNTVGRKYRCFYNNCSRTFKTKEKYEKHIDKHKVHELKLKILQEKEENKTLVDQNHKEPFIIQKETQSAGDK
B13: PSMD10 1-226 I219D (Homo sapiens, UniProt O75832); chain MEGCVSNLMVCNLAYSGKLEELKESILADKSLATRTDQDSRTALHWACSAGHTEIVEFLLQLGVPVNDKDDAGWSPLHIAASAGRDEIVKALLGKGAQVNAVNQNGCTPLHYAASKNRHEIAVMLLEGGANPDAKDHYEATAMHRAAAKGNLKMIHILLYYKASTNIQDTEGNTPLHLACDEERVEEAKLLVSQGASIYIENKEEKTPLQVAKGGLGLDLKRMVEG
B14: acpP crypto-AcpP 1-78 (Escherichia coli, UniProt P0A6A8); Ser36 phosphopantetheine fluorophore analog; chain MSTIEERVKKIIGEQLGVKQEEVTNNASFVEDLGADSLDTVELVMALEEEFDTEIPDEEAEKITTVQAAIDYINGHQA
Chain of UniProt Q12263 (whole entry, looked up): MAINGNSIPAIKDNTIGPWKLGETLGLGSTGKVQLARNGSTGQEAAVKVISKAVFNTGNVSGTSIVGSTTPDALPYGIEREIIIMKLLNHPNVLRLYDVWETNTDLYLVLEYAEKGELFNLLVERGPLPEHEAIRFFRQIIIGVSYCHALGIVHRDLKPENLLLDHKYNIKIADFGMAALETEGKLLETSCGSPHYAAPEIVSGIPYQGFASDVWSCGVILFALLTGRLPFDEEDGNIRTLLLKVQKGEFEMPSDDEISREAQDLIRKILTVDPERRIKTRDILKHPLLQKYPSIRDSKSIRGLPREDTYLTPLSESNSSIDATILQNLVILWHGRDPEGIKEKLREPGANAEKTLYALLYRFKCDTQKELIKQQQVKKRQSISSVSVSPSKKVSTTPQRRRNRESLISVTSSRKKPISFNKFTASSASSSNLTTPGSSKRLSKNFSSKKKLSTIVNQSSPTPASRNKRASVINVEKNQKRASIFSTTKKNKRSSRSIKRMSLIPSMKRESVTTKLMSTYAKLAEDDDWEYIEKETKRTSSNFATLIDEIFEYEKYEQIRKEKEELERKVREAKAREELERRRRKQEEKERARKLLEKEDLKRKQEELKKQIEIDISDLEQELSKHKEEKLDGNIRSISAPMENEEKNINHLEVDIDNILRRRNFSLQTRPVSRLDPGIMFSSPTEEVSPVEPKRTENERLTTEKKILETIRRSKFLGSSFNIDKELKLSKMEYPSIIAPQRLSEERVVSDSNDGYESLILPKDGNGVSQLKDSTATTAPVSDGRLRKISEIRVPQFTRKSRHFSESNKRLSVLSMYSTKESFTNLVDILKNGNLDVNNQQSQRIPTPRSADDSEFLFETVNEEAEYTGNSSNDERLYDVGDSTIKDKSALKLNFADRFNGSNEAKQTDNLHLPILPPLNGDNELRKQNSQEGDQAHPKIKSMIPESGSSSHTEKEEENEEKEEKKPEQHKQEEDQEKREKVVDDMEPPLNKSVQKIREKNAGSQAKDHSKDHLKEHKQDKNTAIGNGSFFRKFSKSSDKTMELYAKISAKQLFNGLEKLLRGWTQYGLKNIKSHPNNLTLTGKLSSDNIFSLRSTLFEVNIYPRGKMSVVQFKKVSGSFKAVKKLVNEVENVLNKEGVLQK
Chain of UniProt P38251 (whole entry, looked up): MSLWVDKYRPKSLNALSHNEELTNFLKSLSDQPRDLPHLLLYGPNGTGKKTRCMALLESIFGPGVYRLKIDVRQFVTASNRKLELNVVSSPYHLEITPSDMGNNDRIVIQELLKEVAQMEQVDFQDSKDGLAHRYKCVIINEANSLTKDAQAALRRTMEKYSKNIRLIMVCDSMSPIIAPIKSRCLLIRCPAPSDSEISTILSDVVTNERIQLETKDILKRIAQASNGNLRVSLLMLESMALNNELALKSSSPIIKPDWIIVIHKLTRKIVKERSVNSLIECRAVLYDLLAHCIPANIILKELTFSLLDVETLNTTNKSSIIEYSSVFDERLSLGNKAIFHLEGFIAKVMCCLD
Chain of UniProt P32807 (whole entry, looked up): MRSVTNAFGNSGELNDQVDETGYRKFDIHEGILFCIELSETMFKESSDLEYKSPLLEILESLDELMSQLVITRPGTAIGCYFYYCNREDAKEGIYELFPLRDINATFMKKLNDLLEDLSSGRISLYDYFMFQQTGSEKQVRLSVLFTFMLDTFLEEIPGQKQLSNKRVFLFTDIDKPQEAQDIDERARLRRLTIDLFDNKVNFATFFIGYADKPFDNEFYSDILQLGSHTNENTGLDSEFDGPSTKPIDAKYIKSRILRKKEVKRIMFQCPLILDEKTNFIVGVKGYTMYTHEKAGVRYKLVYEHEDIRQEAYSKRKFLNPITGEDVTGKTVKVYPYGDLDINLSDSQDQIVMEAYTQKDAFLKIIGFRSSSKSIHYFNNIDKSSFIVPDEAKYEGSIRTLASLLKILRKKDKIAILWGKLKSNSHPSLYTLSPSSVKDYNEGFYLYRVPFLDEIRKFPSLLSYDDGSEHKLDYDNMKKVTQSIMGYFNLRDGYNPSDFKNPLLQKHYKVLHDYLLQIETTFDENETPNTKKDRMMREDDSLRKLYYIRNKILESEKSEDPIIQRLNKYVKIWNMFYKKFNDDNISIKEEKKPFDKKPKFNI
Chain of UniProt Q15388 (whole entry, looked up): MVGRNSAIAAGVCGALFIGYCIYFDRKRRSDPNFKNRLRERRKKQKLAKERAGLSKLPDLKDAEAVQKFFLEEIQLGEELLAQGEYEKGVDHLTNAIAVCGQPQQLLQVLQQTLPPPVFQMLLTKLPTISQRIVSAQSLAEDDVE
Chain of UniProt P37177 (whole entry, looked up): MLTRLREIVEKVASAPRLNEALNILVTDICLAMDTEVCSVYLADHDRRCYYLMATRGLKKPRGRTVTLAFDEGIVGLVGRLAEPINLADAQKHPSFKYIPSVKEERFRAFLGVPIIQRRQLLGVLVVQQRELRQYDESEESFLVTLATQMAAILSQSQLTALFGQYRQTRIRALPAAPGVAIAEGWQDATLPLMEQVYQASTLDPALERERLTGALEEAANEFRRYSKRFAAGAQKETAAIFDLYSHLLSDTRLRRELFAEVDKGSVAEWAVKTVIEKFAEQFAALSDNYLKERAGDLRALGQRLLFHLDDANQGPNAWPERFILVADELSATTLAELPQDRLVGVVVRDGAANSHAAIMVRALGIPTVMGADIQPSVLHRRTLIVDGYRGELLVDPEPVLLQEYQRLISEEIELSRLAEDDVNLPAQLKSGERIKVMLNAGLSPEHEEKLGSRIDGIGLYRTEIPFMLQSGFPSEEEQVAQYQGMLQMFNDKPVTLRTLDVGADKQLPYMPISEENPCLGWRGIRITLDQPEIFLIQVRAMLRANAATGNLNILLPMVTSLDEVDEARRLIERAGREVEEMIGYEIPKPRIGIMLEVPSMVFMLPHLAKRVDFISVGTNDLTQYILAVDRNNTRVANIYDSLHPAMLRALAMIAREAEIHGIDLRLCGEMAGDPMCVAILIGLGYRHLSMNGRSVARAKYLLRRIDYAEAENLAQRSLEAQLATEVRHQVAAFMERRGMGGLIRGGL
Chain of UniProt Q5T0T0 (whole entry, looked up): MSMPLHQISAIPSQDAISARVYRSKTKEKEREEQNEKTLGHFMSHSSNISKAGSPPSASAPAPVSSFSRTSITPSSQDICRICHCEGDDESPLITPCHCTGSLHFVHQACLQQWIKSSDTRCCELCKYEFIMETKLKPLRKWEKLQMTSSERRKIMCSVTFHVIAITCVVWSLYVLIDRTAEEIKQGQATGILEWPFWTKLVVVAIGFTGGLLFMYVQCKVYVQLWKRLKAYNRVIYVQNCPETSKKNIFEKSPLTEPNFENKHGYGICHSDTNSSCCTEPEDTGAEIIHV
Chain of UniProt P43354 (whole entry, unmodified, looked up): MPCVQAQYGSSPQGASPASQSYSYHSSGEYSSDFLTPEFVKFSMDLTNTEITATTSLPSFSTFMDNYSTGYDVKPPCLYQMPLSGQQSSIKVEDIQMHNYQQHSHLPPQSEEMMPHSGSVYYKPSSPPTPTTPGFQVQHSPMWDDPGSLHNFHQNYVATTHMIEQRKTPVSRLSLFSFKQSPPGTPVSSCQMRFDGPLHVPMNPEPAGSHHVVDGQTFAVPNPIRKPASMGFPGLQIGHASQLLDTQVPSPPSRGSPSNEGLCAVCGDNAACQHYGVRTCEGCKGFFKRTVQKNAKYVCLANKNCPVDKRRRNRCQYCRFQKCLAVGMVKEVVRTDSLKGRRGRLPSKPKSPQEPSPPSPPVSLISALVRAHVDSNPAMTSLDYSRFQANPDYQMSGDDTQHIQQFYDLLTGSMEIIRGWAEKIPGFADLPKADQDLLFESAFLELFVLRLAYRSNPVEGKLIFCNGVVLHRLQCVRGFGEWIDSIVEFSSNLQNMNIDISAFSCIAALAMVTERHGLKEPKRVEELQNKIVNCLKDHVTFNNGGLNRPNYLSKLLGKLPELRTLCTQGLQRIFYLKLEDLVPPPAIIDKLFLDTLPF
Chain of UniProt Q39011 (whole entry, looked up): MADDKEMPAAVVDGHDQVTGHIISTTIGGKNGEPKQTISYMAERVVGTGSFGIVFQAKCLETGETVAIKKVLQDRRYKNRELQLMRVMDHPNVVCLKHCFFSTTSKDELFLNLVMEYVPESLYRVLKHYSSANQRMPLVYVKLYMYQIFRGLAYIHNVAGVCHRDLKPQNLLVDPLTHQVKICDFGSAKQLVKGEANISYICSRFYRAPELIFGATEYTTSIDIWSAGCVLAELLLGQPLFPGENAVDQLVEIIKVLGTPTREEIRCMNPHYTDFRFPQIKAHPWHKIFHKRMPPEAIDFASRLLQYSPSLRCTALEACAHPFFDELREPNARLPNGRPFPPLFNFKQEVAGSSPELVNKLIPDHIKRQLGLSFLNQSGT
Chain of UniProt O95619 (whole entry, looked up): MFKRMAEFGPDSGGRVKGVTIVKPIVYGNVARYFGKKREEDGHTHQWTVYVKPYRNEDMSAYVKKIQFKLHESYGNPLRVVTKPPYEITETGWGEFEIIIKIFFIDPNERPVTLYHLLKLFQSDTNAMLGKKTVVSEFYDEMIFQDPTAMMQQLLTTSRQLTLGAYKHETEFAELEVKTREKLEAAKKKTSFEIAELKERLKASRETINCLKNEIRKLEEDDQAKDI

B1 (RAD1)
binding (LIG1 233-919 (Homo sapiens, UniProt P18858); pull-down; 1 hr, 4 °C): binds

B2 (VIP1)
binding (FASS (Arabidopsis thaliana, UniProt Q9FEE2); pull-down): binds

MSVLTPLLLRGLTGSARRLPVPRAK (COX8A presequence peptide, 1-25)
binding (TOMM20 cytosolic domain, 62-127, N-terminal cysteine ATTO550 label (Homo sapiens, UniProt Q15388); fluorescence polarisation; peptide): binds

B3 (MED15 residues 7-659)
binding (Gcn4 fragment C262S (Saccharomyces cerevisiae); fluorescence polarisation): binds

CCUCUUUCU (ssRNA)
Kd (U2AF2; sequencing of bound RNA; RNA; motif only): 1770 nM

B4 (MARCHF2)
binding (MARCH8 (Homo sapiens, UniProt Q5T0T0); pull-down): binds

B5 (human IGHG2)
log2 fold change (PP6C (human); co-immunoprecipitation, IP-MS; CYB5R4 knockout cells; concentration not given; relative to: CYB5R4 knockout over parental): -0.75

BIN2 (Arabidopsis thaliana, UniProt Q39011)
binding (PCK1 S62A/T66A (Arabidopsis thaliana, UniProt Q9T074); BLI; without ATP): binds

ARTKQTARKST (histone H3 2-12 (UniProt P68431); acetylated K9; sequence looked up)
binding (YEATS4 19-159 (Homo sapiens, UniProt O95619); X-ray crystallography; peptide): binds

B6 (POL30 1-258)
binding (RFC5 1-354 (Saccharomyces cerevisiae, UniProt P38251); cryo-EM): binds

B7 (Ncoa1 260-369)
binding (NR4A2 1-165 F34R/L35R (Homo sapiens, UniProt P43354); pull-down): binds

B8 (AEBP2 407-478)
binding (SUZ12/RBBP4 SUZ12 76-545 (Homo sapiens); pull-down): binds

B9 (ptsO 1-85)
binding (ptsP 170-424 (Escherichia coli, UniProt P37177); SPR): binds

B10 (CLNS1A 2-237)
binding (PRMT5/WDR77 full length, hetero-octamer (Homo sapiens); SPR): binds

VGSPKNAVPPC (IL1RAP 234-243 (Homo sapiens); cyclic, C-terminal amide, acetylated N-terminus)
binding (IL1RL1/IL33 ST2 , IL-33 19-328; pull-down; peptide): binds

RKAKTKEGKGPNARRK (CHD4 258-273 (Homo sapiens, UniProt Q14839); sequence looked up)
binding (ATRX 1-321 D207A/D208A/D212A/D214A/D217A/E218A (Homo sapiens, UniProt P46100); ITC; peptide; 25 °C): binds

ELM1 (Saccharomyces cerevisiae, UniProt P32801)
binding (GIN4 (Saccharomyces cerevisiae, UniProt Q12263); pull-down): binds

B11 (PSMA5)
binding (T1, PSMG3/PSMG4 heterodimer (Homo sapiens); cryo-EM): binds

B12 (PZF1 1-429)
binding (TFC3 1-1160 (Saccharomyces cerevisiae, UniProt P34111); cryo-EM): binds

YKU70 (Saccharomyces cerevisiae, UniProt P32807)
binding (YKU80 (Saccharomyces cerevisiae, UniProt Q04437); cryo-EM structure): binds

UGUUAAUUU (ssRNA)
Kd (U2AF2; sequencing of bound RNA; RNA; motif only): 2960 nM

KESALRKQDLLLEFDPLFR (TACC3 to 568 550-568 S558D/Y560L/K562E/L567F (Homo sapiens, UniProt Q9Y6A5); sequence looked up)
binding (CLTC 358-574 (Homo sapiens, UniProt Q00610); peptide array; peptide): binds

B13 (PSMD10 1-226 I219D)
binding (Mdm2 (Mus musculus, UniProt P23804); pull-down): binds

HGKNTFLSRIFGL (ATG9 12-24 (Saccharomyces cerevisiae, UniProt Q12142); sequence looked up)
binding (Atg23 full-length, dimer (yeast, UniProt Q06671); pull-down; 5 µM, 15 min, pH 8, 4 °C, NaCl 150 mM): binds

B14 (acpP crypto-AcpP 1-78)
binding (fabF 1-413 (Escherichia coli, UniProt P0AAI5); fluorescence emission spectra, solvatochromic probe): binds

KEAFWDRCLSVINLMSSKCLQINA
activity change (Cyclin-dependent kinase 5, with p25 (CDK5, Homo sapiens, UniProt Q00535); phosphotransferase activity, radiometric; peptide; concentration not given, 10% DMSO, together with: histone substrate; relative to: p5-WT peptide): 24%

human ME2 I58F
Hill coefficient (enzyme activity, NADH absorbance; with fumarate 3 mM, together with: L-malate varied): 1.31 ± 0.13

A few entries again:
B9 (ptsO 1-85)
binding (ptsP 170-424 (Escherichia coli, UniProt P37177); SPR): binds

B10 (CLNS1A 2-237)
binding (PRMT5/WDR77 full length, hetero-octamer (Homo sapiens); SPR): binds

VGSPKNAVPPC (IL1RAP 234-243 (Homo sapiens); cyclic, C-terminal amide, acetylated N-terminus)
binding (IL1RL1/IL33 ST2 , IL-33 19-328; pull-down; peptide): binds
